{"data": "Experimental data pooled from the literature", "Histidine kinase AgrC": "Histidine kinase AgrC (Listeria monocytogenes, UniProt A8E0G3)", "sdiA": "Regulatory protein SdiA (sdiA, Escherichia coli, UniProt P07026)", "lasR": "Transcriptional activator protein LasR (lasR, Pseudomonas aeruginosa, UniProt P25084)", "AVPR1A": "Vasopressin V1a receptor (AVPR1A, Homo sapiens, UniProt P37288)", "note": "± marks the error that the study gave.", "sequence of UniProt P07026 (whole entry, looked up)": "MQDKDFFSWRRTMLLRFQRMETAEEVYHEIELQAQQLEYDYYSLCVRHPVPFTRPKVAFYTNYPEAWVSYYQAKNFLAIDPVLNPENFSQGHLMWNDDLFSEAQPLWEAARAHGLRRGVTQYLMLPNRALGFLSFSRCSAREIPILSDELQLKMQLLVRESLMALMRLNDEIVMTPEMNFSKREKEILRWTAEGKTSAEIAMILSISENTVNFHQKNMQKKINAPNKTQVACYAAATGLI", "sequence of UniProt P25084 (whole entry, looked up)": "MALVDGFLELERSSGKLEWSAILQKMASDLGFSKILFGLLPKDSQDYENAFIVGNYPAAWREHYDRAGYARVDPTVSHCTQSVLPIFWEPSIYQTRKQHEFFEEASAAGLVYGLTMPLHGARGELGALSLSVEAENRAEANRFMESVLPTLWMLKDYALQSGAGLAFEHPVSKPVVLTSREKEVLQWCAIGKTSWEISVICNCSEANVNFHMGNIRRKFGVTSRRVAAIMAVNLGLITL", "sequence of UniProt P37288 (whole entry, looked up)": "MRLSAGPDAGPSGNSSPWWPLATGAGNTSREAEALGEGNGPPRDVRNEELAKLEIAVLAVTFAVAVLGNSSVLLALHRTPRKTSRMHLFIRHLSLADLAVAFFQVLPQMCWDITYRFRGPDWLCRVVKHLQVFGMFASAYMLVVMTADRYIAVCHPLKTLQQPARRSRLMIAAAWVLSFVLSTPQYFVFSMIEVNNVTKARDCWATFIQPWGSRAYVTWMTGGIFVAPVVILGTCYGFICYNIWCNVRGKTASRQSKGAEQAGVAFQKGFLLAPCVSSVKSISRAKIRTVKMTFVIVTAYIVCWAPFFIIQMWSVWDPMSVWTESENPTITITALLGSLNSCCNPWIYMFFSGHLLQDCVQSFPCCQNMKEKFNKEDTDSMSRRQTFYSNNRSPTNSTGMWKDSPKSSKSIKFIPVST", "sequence of UniProt Q03431 (whole entry, looked up)": "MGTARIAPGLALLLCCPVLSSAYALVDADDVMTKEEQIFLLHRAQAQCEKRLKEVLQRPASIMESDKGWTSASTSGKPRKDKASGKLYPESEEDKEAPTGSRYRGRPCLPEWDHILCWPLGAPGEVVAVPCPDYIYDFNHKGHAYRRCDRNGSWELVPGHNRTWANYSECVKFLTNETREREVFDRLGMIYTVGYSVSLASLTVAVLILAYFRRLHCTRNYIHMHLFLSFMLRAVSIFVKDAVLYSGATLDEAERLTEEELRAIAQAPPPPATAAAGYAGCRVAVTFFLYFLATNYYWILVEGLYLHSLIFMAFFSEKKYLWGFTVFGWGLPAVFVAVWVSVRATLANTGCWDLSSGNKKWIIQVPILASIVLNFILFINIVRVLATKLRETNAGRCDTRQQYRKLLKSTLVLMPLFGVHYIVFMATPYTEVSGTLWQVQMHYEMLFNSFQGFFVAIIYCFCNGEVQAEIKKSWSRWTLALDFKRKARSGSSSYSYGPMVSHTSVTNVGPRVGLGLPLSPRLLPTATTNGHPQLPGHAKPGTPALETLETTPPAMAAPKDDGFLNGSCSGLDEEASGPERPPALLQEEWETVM", "sequence of UniProt Q9UKP6 (whole entry, unmodified, looked up)": "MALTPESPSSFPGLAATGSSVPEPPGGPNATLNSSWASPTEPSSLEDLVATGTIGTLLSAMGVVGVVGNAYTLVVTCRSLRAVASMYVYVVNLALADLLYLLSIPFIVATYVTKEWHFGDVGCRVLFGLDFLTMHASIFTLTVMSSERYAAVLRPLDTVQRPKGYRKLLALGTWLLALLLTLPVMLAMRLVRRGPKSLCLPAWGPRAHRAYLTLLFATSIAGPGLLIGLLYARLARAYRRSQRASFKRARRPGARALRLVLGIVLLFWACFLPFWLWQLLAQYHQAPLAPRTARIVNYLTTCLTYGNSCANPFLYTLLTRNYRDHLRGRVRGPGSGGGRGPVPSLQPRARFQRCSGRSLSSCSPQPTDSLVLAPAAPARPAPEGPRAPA", "sequence of UniProt P41143 (whole entry, unmodified, looked up)": "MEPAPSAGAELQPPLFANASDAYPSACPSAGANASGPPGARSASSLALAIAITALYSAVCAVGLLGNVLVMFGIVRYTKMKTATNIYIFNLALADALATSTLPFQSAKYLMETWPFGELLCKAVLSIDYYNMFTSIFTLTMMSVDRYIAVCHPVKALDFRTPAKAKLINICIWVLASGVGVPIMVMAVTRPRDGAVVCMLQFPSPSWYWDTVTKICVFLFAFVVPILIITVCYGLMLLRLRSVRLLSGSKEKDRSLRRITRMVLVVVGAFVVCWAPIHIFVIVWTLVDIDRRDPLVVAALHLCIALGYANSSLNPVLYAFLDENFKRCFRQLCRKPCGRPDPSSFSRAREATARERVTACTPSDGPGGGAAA", "sequence of UniProt P35372 (whole entry, looked up)": "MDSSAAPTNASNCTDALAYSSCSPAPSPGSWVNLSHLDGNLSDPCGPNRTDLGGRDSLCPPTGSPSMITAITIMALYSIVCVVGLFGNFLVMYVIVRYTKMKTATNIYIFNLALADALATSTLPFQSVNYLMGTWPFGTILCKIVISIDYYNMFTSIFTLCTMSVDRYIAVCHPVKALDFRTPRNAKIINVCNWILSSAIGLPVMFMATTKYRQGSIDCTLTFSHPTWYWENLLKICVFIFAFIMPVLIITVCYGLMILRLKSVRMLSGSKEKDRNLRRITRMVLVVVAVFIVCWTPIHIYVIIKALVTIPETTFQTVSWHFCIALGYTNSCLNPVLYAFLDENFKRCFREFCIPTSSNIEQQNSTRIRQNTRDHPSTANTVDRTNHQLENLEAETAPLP", "sequence of UniProt Q8BZ39 (whole entry, looked up)": "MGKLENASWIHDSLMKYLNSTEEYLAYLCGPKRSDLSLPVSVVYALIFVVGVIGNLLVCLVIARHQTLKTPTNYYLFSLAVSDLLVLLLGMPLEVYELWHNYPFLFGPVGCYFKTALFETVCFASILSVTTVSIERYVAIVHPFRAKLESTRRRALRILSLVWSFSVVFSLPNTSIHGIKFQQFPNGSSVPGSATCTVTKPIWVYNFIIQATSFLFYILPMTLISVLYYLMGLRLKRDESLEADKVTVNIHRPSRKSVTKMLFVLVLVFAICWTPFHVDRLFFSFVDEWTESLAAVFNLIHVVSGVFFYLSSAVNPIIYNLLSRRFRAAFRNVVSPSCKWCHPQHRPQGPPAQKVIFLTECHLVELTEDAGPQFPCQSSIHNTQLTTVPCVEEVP"}
{"SMILES": "O=C(Nn1c(-c2cccc(Cl)c2)nc2ccccc2c1=O)c1ccccc1", "target": "TRPM channel (Clonorchis sinensis, UniProt G7YJJ5)", "assay": "calcium reporter", "system": "HEK293, transiently transfected", "EC50 [µM]": "0.47 ± 0.09"}
{"SMILES": "CCCCCCCCCCCCCCCCCC(=O)NC[C@H]1CC[C@H](C(=O)N[C@@H](CCC(=O)NCCCOCCOCCOCCCNC(=O)COCC(=O)N[C@@H](Cc2ccc(O)cc2)C(=O)NC(C)(Cc2ccccc2)C(=O)N[C@@H](CC(C)C)C(=O)N[C@@H](CCCC)C(=O)N[C@@H](CCCNC(=N)N)C(=O)N2CCC[C@H]2C(=O)N[C@@H](CCCNC(=N)NC)C(=O)N[C@@H](CC(N)=O)C(N)=O)C(=O)O)CC1 (stereo partly drawn)", "target": "Neuromedin-U receptor 2 (Mus musculus, UniProt Q8BZ39)", "assay": "beta-arrestin recruitment, agonist", "EC50 [µM]": 0.0031}
{"SMILES": "CSCC[C@@H]1NC(=O)[C@H](Cc2ccccc2)NC(=O)[C@@H](NC(=O)[C@H](C)N)CSC(=O)[C@@H](C(C)C)NC(=O)[C@H](Cc2ccccc2)NC1=O", "target": "Histidine kinase AgrC", "EC50 [µM]": 0.883}
{"SMILES": "O=C(Cc1ccc(Cl)cc1)N[C@H]1CCOC1=O", "target": "sdiA", "EC50 [µM]": 0.00356}
{"SMILES": "CC(C)[C@H](NC(=O)[C@@H]1CSSC(C)(C)[C@H](NC(=O)[C@@H](N)CC(=O)O)C(=O)N[C@@H](Cc2ccccc2)C(=O)N[C@@H](Cc2c[nH]c3ccccc23)C(=O)N[C@@H](CCCCN)C(=O)N[C@@H](Cc2ccc(O)cc2)C(=O)N1)C(=O)O", "target": "Urotensin-2 receptor (UTS2R, Homo sapiens, UniProt Q9UKP6, F274A)", "assay": "IP1 accumulation, agonist, HTRF", "system": "HEK293T", "setting": "1 h, 37 °C, F274A mutant, 6.51", "EC50 [µM]": 0.0398}
{"SMILES": "O=C(NCc1cc(Br)cc(Br)c1OC(=O)c1ccccc1[N+](=O)[O-])c1ccccc1Cl", "target": "lasR", "assay": "reporter gene, agonist", "system": "ΔmexAB-oprM pump mutant", "EC50 [µM]": 0.036}
{"SMILES": "Cc1cc(O)cc(C)c1C[C@H](N)C(=O)N[C@H](CCCNC(=N)N)C(=O)N[C@@H](Cc1ccccc1)C(=O)N(C)CC(=O)N(C)Cc1cc(C(F)(F)F)cc(C(F)(F)F)c1", "target": "Delta-type opioid receptor (OPRD1, Homo sapiens, UniProt P41143, N90S)", "assay": "receptor activation, agonist", "EC50 [µM]": "0.0457 ± 0.0074"}
{"SMILES": "CSc1cccc(CC(=O)N[C@H]2CCOC2=O)c1", "target": "sdiA", "EC50 [µM]": 0.00309}
{"SMILES": "CSCC[C@@H]1NC(=O)[C@H](Cc2ccccc2)NC(=O)[C@@H](NC(=O)[C@H](C)N)CNC(=O)[C@H](C(C)C)NC(=O)[C@H](Cc2ccccc2)NC1=O", "target": "Histidine kinase AgrC", "EC50 [µM]": 0.342}
{"SMILES": "CCCC[C@H](NC(=O)[C@H](CC(C)C)NC(=O)[C@H](CCC(N)=O)NC(=O)[C@@H](NC(=O)[C@H](CCC(=O)O)NC(=O)C(C)(C)NC(=O)[C@@H](NC(=O)C1(N)CCCC1)C(C)C)[C@@H](C)CC)C(=O)N[C@@H](Cc1c[nH]cn1)C(=O)N[C@@H](CCC(N)=O)C(=O)N[C@@H](CCCCNC(=O)[C@H](CCCNC(=N)N)NC(=O)CCCCCCCCCCCCCCCCC(=O)O)C(N)=O", "target": "Parathyroid hormone/parathyroid hormone-related peptide receptor (PTH1R, Homo sapiens, UniProt Q03431)", "assay": "cAMP, agonist, GloSensor", "system": "GP-2.3", "setting": "120 min after washout", "EC50 [µM]": 0.166}
{"SMILES": "O=C(CCCCCCCCCN=C=S)CC(=O)N[C@H]1CCOC1=O", "target": "lasR", "assay": "reporter gene, agonist", "system": "ΔmexAB-oprM pump mutant", "EC50 [µM]": 1.3}
{"SMILES": "O=C(CCCOc1cccc(Br)c1)N[C@H]1CCSC1=O", "target": "sdiA", "EC50 [µM]": 0.0329}
{"SMILES": "CC[C@H](C)[C@@H]1NC(=O)[C@H](Cc2ccc(O)cc2)NC(=O)[C@@H](N)CSSC[C@@H](C(=O)N2CCC[C@H]2C(=O)N[C@@H](CC(C)C)C(=O)NCC(N)=O)NC(=O)[C@H](CC(N)=O)NC(=O)[C@H](CCC(N)=O)NC(=O)[C@H]([C@@H](C)CC)NC(=O)[C@H](Cc2ccc(O)cc2)NC(=O)[C@@H](N)CSSC[C@@H](C(=O)N2CCC[C@H]2C(=O)N[C@@H](CC(C)C)C(=O)NCC(N)=O)NC(=O)[C@H](CC(N)=O)NC(=O)[C@H](CCC(N)=O)NC1=O", "target": "AVPR1A", "assay": "calcium signal, agonist, fluorescence", "EC50 [µM]": "> 10"}
{"SMILES": "O=C(Cc1ccccc1F)N[C@H]1CCOC1=O", "target": "sdiA", "EC50 [µM]": 0.00418}
{"SMILES": "O=C(CCCOc1cccc(Br)c1)N[C@H]1CCSC1=O", "target": "lasR", "assay": "reporter gene, agonist", "system": "ΔmexAB-oprM pump mutant", "EC50 [µM]": 0.56}
{"SMILES": "CSCC[C@@H]1NC(=O)[C@H](Cc2ccccc2)NC(=O)[C@@H](NC(=O)[C@H](C)N)CSC(=O)[C@H](C(C)C)NC(=O)[C@H](Cc2ccc(O)cc2)NC1=O", "target": "Histidine kinase AgrC", "EC50 [µM]": 5.62}
{"SMILES": "N#Cc1cccc(CC(=O)N[C@H]2CCOC2=O)c1", "target": "sdiA", "EC50 [µM]": 0.00243}
{"SMILES": "CC[C@H](C)[C@@H]1NC(=O)[C@H](Cc2ccc(O)cc2)NC(=O)[C@@H](N)CSSC[C@H](N)C(=O)N[C@@H](Cc2ccc(O)cc2)C(=O)N[C@@H]([C@@H](C)CC)C(=O)N[C@@H](CCC(N)=O)C(=O)N[C@@H](CC(N)=O)C(=O)N[C@H](C(=O)N2CCC[C@H]2C(=O)N[C@@H](CC(C)C)C(=O)NCC(N)=O)CSSC[C@@H](C(=O)N2CCC[C@H]2C(=O)N[C@@H](CC(C)C)C(=O)NCC(N)=O)NC(=O)[C@H](CC(N)=O)NC(=O)[C@H](CCC(N)=O)NC1=O", "target": "AVPR1A", "assay": "calcium signal, agonist, fluorescence", "EC50 [µM]": "> 10"}
{"SMILES": "O=C(Cc1ccc(Br)cc1)N[C@@H]1CCOC1=O", "target": "sdiA", "EC50 [µM]": 0.631}
{"SMILES": "CSCC[C@@H]1NC(=O)[C@H](Cc2ccccc2)NC(=O)[C@@H](NC(=O)[C@@H](N)CCCCN)CSC(=O)[C@H](C(C)C)NC(=O)[C@H](Cc2ccccc2)NC1=O", "target": "Histidine kinase AgrC", "EC50 [µM]": 0.0229}
{"SMILES": "CCCCCC(=O)CC(=O)NC1CCSC1=O (stereo not drawn)", "target": "sdiA", "EC50 [µM]": 0.00478}
{"SMILES": "CC(C)[C@@H]1NC(=O)[C@H](Cc2ccccc2)NC(=O)[C@@H](C)NC(=O)[C@H](Cc2ccccc2)NC(=O)[C@@H](NC(=O)[C@H](C)N)CSC1=O", "target": "Histidine kinase AgrC", "EC50 [µM]": 0.455}
{"SMILES": "O=C(Cc1ccccc1Cl)N[C@H]1CCOC1=O", "target": "sdiA", "EC50 [µM]": 0.0172}
{"SMILES": "CN(C)[C@H](CNC(=O)/C=C/c1cccc2ccccc12)Cc1ccc(O)cc1", "target": "Mu-type opioid receptor, with GoB (OPRM1, Homo sapiens, UniProt P35372)", "assay": "receptor activation, agonist", "EC50 [µM]": "0.0073 ± 0.0017"}
{"note": "Repeated from above:"}
{"SMILES": "O=C(Cc1ccc(Cl)cc1)N[C@H]1CCOC1=O", "target": "sdiA", "EC50 [µM]": 0.00356}
{"SMILES": "CC(C)[C@H](NC(=O)[C@@H]1CSSC(C)(C)[C@H](NC(=O)[C@@H](N)CC(=O)O)C(=O)N[C@@H](Cc2ccccc2)C(=O)N[C@@H](Cc2c[nH]c3ccccc23)C(=O)N[C@@H](CCCCN)C(=O)N[C@@H](Cc2ccc(O)cc2)C(=O)N1)C(=O)O", "target": "Urotensin-2 receptor (UTS2R, Homo sapiens, UniProt Q9UKP6, F274A)", "assay": "IP1 accumulation, agonist, HTRF", "system": "HEK293T", "setting": "1 h, 37 °C, F274A mutant, 6.51", "EC50 [µM]": 0.0398}
{"SMILES": "O=C(NCc1cc(Br)cc(Br)c1OC(=O)c1ccccc1[N+](=O)[O-])c1ccccc1Cl", "target": "lasR", "assay": "reporter gene, agonist", "system": "ΔmexAB-oprM pump mutant", "EC50 [µM]": 0.036}
{"SMILES": "Cc1cc(O)cc(C)c1C[C@H](N)C(=O)N[C@H](CCCNC(=N)N)C(=O)N[C@@H](Cc1ccccc1)C(=O)N(C)CC(=O)N(C)Cc1cc(C(F)(F)F)cc(C(F)(F)F)c1", "target": "Delta-type opioid receptor (OPRD1, Homo sapiens, UniProt P41143, N90S)", "assay": "receptor activation, agonist", "EC50 [µM]": "0.0457 ± 0.0074"}
